Experimental data from different studies.
Parts stem from different laboratories: compare values within a part only. “And” joins repeats or separate records; there may be more than shown.

Block 1 — technique: SPR, single-cycle; sample: immobilized KRAS G12D; setting: binary
Target: GTPase KRas, GDP-bound (KRAS, Homo sapiens, UniProt P01116, G12D)
SMILES	kon
Cc1ncsc1-c1ccc(C2(NC(=O)C3CC(O)CN3C(=O)C(NC(=O)c3ccc(COc4c(-c5c(C)c(F)cc6[nH]ncc56)c(C5CC5)cc5c(N6CC7CC6CN7)nc(OC6CCOCC6)nc45)cc3)C(C)C)CC2)cc1 (stereo not drawn)	157000 M⁻¹ s⁻¹ and 212000 M⁻¹ s⁻¹
Cc1ncsc1-c1ccc(C(CO)NC(=O)C2CC(O)CN2C(=O)C(C(C)C)n2cc(-c3ccc(COc4c(-c5c(C)c(F)cc6[nH]ncc56)c(C5CC5)cc5c(N6CC7CC6CN7)nc(OC6CCOCC6)nc45)cc3)nn2)cc1 (stereo not drawn)	150000 M⁻¹ s⁻¹ and 208000 M⁻¹ s⁻¹
Cc1ncsc1-c1ccc(C(CO)NC(=O)C2CC(O)CN2C(=O)C(NC(=O)c2ccc(COc3c(-c4c(C)c(F)cc5[nH]ncc45)c(C4CC4)cc4c(N5CC6CC5CN6)nc(OC5CCOCC5)nc34)cc2)C(C)C)cc1 (stereo not drawn)	575000 M⁻¹ s⁻¹ and 451000 M⁻¹ s⁻¹

Block 2 — cell line: NCI-H292; technique: CellTiter-Glo; time: 72 h; reading: higher = more viable cells
SMILES: N#C/C=C/CNCCCCN1c2ccccc2CCc2ccc(Cl)cc21.O=C(O)/C=C\C(=O)O
conditions	luminescence
0.5 µM	4.05e+06 a.u. and 4.1e+06 a.u. and 4.21e+06 a.u.
0.05 µM	4.2e+06 a.u. and 4.14e+06 a.u.
0.005 µM	4.19e+06 a.u. and 4.08e+06 a.u. and 4.11e+06 a.u.
5 µM	2.19e+06 a.u. and 2.48e+06 a.u. and 2.15e+06 a.u.
50 µM	75200 a.u. and 76100 a.u. and 72400 a.u.

Block 3 — cell line: U-87 MG; tested at: concentration not given; baseline: DMSO
Structure (SMILES): CCN1/C(=C/C=C2\CCCC(/C=C/C3=[N+](CC)c4ccccc4C3(C)C)=C2NCCCCCCCCN2CCC(Nc3nc4ccccc4n3Cc3ccc(F)cc3)CC2)C(C)(C)c2ccccc21
assay	log2 fold change
measured: CACHD1 mRNA	1.32
measured: SLC9A5 mRNA	-1.42
measured: PRDM1 mRNA	1.37
measured: KIF27 mRNA	1.2
measured: FSCN1 mRNA	-1.4
measured: B3GNTL1 mRNA	-0.96
measured: DCHS2 mRNA	1.47
measured: NCAPD2 mRNA	-1.56
measured: FAM111B mRNA	-2.35
measured: EHD2 mRNA	-0.956
measured: SPOPL mRNA	0.841
measured: POLR3C mRNA	0.858
measured: SMIM34A mRNA	4.83
measured: NPY4R mRNA	-3.88
measured: MYBL1 mRNA	-1.91
measured: ZXDC mRNA	1.04

Block 4
SMILES: O=C(O)C1(O)Oc2cc(F)ccc2N(Cc2ccccc2)C1=O (stereo not drawn)
organism	assay	system	conditions	how to read	inhibition
Eclipta prostrata	fresh weight	–	150 g ai/ha, post-emergence treatment	–	89.2% and 87.6% and 86.6%
Arabidopsis thaliana	root length	Col-0, seedlings	3.125 µg/mL	baseline: water control	41.1%
Arabidopsis thaliana	root length	Col-0, seedlings	50 µg/mL, with BCAA	–	10.5%
Arabidopsis thaliana	hypocotyl length	Col-0, seedlings	50 µg/mL, with BCAA	–	7.36%
Alopecurus japonicus	fresh weight	–	150 g ai/ha, pre-emergence treatment	–	62.3% and 63.2% and 60.8%
Arabidopsis thaliana	root length	Col-0	3.13 µg/mL, 7 days, seed germination, dark	–	41.1%
Arabidopsis thaliana	root length	Col-0	25.0 µg/mL, 7 days, seed germination, dark	–	88.3%
Arabidopsis thaliana	root length	Col-0, seedlings	12.5 µg/mL	–	73.4%
Arabidopsis thaliana	hypocotyl length	Col-0	6.25 µg/mL, 7 days, seed germination, dark	–	32.7%
Arabidopsis thaliana	root length	Col-0, seedlings	50 µg/mL, half-strength MS	–	99.1%
Arabidopsis thaliana	root length	Col-0	6.25 µg/mL, 7 days, seed germination, dark	–	60.1%
Alopecurus aequalis	fresh weight	–	150 g ai/ha, pre-emergence treatment	–	45.2% and 40.2% and 45.1%
Arabidopsis thaliana	hypocotyl length	Col-0, seedlings	50 µg/mL	–	95.7%
Zea mays	fresh weight	–	soil surface spray, 150 g ai/ha, 21 days, pre-emergence crop safety	–	21.4% and 16.4% and 17.1%
Echinochloa crus-galli	fresh weight	–	150 g ai/ha, post-emergence treatment	–	58.5% and 59.4% and 59.7%

Repeated from above (block 3):
assay	log2 fold change
measured: DCHS2 mRNA	1.47
measured: NCAPD2 mRNA	-1.56
measured: FAM111B mRNA	-2.35
measured: EHD2 mRNA	-0.956
